Experimental data gathered from unrelated publications.
Lines come from different studies, so protocols differ.

Structure (SMILES)	test	system	conditions	scale	measurement	result
Cc1ccccc1C(=O)NN=Cc1ccc(O)c(Br)c1	–	normal C3H/HeN mouse, plasma	intraperitoneal, 0.8 mg/kg	reference: intravenous 1.6 mg/kg	oral bioavailability F	92.2%
Cc1ccc(F)c2cc(C(=O)N[C@@H]3CCC[C@H](N4CC[C@H](N(C)S(C)(=O)=O)C4)C3)[nH]c12	–	CD1 mouse	oral, 30 mg/kg	–	oral bioavailability	28.4%
C[C@]12CC[C@H](O)CC1=CC[C@@H]1[C@@H]2CC[C@]2(C)C(n3cnc4ccccc43)=CC[C@@H]12.Cl	–	CD-1 mouse male, plasma	oral	–	oral half-life	3.9 h
COc1ccnc(C(=O)N[C@H]2COC(=O)[C@H](Cc3ccccc3)[C@@H](OC(=O)C(C)C)[C@H](C)OC2=O)c1OCOC(=O)C(C)C	item: urine, rinse and air	mouse, female	oral	–	oral absorption	25%
CC(c1cncnc1)n1c(=S)[nH]c2ccc(Cl)cc2c1=O (stereo not drawn)	–	mouse, plasma	oral, 50 mg/kg	–	oral bioavailability	135%
Nc1nc(N)c(OCCCOc2ccccc2CCC(=O)O)c(C2CCCCC2)n1	–	BALB/c mouse, female	oral, 3 mg/kg	reference: intravenous 1 mg/kg	oral bioavailability	~40%
C[C@H]1COCCN1c1nc(NCc2cccnc2C(F)(F)F)c2cccnc2n1	–	BALB/c SCID mouse	oral, 90 mg/kg	–	oral bioavailability	91%
O=c1c2cc(Cl)c(CO)cc2[nH]c(=S)n1Cc1cncnc1	–	mouse	oral, 3.98 mg/kg	–	oral bioavailability	26.2%
NC(=O)c1cccc(-c2cc(OC(=O)NC3CCCCC3)ccc2O)c1	–	mouse	10 mg/kg	–	oral bioavailability	5.3%
